# Published values of several laboratories.
# Protocols differ between the studies behind these lines. ± gives the spread as reported.
# Organism: Plasmodium falciparum
SMILES,effect on,technique,cells,strain,matrix,time,EC50
Cc1cc(Nc2ccnc3ccc(-c4ccc(S(=O)(=O)N5CCOCC5)cc4)cc23)sn1,parasite growth,SYBR Green,,W2,,,720 nM
CC/N=C(\c1ccc(OC)c(OC)c1)N1CCCc2cc(C3=NNC(=O)SC3C)ccc21 (stereo not shown),parasite growth,LDH colorimetric,,3D7 Hyp1-Nluc,,72 h,2040 nM
O=S(=O)(c1ccc(-c2ccc3nccc(Nc4ccccn4)c3c2)cc1)N1CCOCC1,parasite growth,SYBR Green,,D6,,,540 nM
Cn1nc2c(=O)n(C)ccc2c1Cc1ccc(C(F)(F)F)nc1,parasite growth,,,3D7,,,4500 nM
CCCOCC(=O)N1CCC[C@H](C(=O)NCc2nc(-c3ccccc3)cs2)C1,,SYBR Green growth,asexual blood-stage parasites,3D7,,72 h,300 ± 59 nM
CCn1nccc1Nc1ccnc2ccc(-c3ccc(S(=O)(=O)N4CCOCC4)cc3)cc12,parasite growth,SYBR Green,,TM91C235,,,4100 nM
Cc1cc(C(C)NC(=O)c2[nH]cc(Cc3ccc(F)c4ccncc34)c2C)no1 (stereo not shown),parasite growth,,,3D7,,,2 to 4 nM
Cc1cc(Nc2ccnc3ccc(-c4ccc(S(=O)(=O)N5CCOCC5)cc4)cc23)on1,parasite growth,SYBR Green,,W2,,,2300 nM
CC[C@@](O)(c1cnc(C(F)(F)F)c(Cl)c1)c1c2ncn(C3CC3)c(=O)c2nn1C,parasite growth,,,3D7,,,0.94 nM
CC(C)(C)OCC(=O)N1CCC[C@H](C(=O)NCc2nc(-c3ccccc3)cs2)C1,,SYBR Green growth,asexual blood-stage parasites,3D7,,72 h,3600 ± 1400 nM
COc1ccc(Nc2ccnc3ccc(-c4ccc(S(=O)(=O)N5CCOCC5)cc4)cc23)cc1Cl,parasite growth,SYBR Green,,TM91C235,,,160 nM
CCOc1ccc(-c2csc(CNC(=O)[C@H]3CCCN(C(=O)COC)C3)n2)cc1,,SYBR Green growth,asexual blood-stage parasites,3D7,,72 h,15 ± 1 nM
COCC(=O)N1CCC[C@H](C(=O)NCc2nc(-c3ccc(C)cc3)cs2)C1,,SYBR Green,,3D7,,72 h,24 ± 2.1 nM
CCn1cc(Cl)c2c(Cc3ccc(C(F)(F)F)nc3)n(C)nc2c1=O,parasite growth,,,3D7,,,12.6 nM
COCC(=O)N1CCC[C@H](C(=O)NCc2nc(-c3ccccc3)c[nH]2)C1,,SYBR Green growth,asexual blood-stage parasites,3D7,,72 h,> 5000 nM
CCN(c1ccc(C)cc1)c1ccc(NC(=O)CN(C)c2ccccc2N2CCCC2=O)cn1,gametocyte viability,luciferase,,stage V gametocytes,,48 h,78 nM
COCC(=O)N1CCC(C(=O)NCc2nc(-c3ccccc3)cs2)CC1,,SYBR Green growth,asexual blood-stage parasites,3D7,,72 h,> 5000 nM
CCN1CCN(Cc2ccc(Nc3nc4ccc(Oc5ccnc(N)c5)cc4n3C)cc2C(F)(F)F)CC1,parasite growth,SYBR Green I,,Dd2,,72 h,300 ± 20 nM
O=S(=O)(c1ccc(-c2ccc3nccc(Nc4ccccc4)c3c2)cc1)N1CCOCC1,parasite growth,SYBR Green,,TM91C235,,,260 nM
O=C(NCc1nc(-c2ccc(C(F)(F)F)cc2)cs1)[C@H]1CCCN(C(=O)COC2CCNCC2)C1,parasite growth,SYBR Green,,3D7,asexual blood stage,72 h,39 ± 9.5 nM
O=S(=O)(c1ccc(-c2ccc3nccc(Nc4cnccn4)c3c2)cc1)N1CCOCC1,parasite growth,SYBR Green,,D6,,,4600 nM
CONC(=O)N1CCC[C@H](C(=O)NCc2nc(-c3ccccc3)cs2)C1,,SYBR Green growth,asexual blood-stage parasites,3D7,,72 h,130 ± 36 nM

# Repeated from above:
SMILES,effect on,technique,cells,strain,matrix,time,EC50
Cc1cc(Nc2ccnc3ccc(-c4ccc(S(=O)(=O)N5CCOCC5)cc4)cc23)on1,parasite growth,SYBR Green,,W2,,,2300 nM
